Assay results of several laboratories.
Numbered parts are unrelated; each lists some results of a single study.
Sequence of UniProt Q14004 (whole entry, looked up): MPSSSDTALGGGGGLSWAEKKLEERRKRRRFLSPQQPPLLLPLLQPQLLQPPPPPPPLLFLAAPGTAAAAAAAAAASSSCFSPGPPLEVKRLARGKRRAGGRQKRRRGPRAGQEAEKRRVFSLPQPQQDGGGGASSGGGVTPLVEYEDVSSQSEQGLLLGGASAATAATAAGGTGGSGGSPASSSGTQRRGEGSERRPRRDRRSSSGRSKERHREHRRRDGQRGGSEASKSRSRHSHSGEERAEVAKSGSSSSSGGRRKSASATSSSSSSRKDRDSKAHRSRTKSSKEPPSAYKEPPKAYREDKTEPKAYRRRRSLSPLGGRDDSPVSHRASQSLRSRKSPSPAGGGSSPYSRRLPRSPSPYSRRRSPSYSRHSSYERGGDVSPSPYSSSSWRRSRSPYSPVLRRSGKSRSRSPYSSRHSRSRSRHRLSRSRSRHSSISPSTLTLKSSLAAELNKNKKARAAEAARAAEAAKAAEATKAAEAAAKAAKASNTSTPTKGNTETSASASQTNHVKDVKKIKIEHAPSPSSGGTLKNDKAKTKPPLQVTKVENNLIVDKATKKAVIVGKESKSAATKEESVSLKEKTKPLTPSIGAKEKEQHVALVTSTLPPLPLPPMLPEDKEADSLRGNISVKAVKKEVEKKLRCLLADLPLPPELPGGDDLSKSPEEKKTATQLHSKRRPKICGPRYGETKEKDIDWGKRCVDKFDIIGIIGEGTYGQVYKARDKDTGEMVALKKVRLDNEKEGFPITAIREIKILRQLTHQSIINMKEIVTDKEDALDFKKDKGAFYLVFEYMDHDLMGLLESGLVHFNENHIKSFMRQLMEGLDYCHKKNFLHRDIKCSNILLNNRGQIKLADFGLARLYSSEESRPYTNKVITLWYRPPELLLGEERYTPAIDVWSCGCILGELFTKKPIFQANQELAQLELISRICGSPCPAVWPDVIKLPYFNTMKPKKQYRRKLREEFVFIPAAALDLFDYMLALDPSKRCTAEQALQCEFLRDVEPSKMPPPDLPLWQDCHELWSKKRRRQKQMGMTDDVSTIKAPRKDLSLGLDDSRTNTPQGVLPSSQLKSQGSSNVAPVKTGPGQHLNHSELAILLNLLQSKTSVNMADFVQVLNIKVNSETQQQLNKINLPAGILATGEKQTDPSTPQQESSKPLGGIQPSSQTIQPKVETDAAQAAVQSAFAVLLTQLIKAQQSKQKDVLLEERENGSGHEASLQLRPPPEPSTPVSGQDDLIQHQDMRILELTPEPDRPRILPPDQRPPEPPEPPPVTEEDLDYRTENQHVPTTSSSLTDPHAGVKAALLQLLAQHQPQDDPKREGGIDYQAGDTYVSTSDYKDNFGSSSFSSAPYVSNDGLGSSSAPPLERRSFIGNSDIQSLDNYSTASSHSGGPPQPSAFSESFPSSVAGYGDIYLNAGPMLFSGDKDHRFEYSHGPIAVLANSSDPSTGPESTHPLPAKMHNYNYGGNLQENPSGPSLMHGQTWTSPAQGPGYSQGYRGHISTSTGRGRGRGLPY
Sequence of UniProt P42336 (whole entry, unmodified, looked up): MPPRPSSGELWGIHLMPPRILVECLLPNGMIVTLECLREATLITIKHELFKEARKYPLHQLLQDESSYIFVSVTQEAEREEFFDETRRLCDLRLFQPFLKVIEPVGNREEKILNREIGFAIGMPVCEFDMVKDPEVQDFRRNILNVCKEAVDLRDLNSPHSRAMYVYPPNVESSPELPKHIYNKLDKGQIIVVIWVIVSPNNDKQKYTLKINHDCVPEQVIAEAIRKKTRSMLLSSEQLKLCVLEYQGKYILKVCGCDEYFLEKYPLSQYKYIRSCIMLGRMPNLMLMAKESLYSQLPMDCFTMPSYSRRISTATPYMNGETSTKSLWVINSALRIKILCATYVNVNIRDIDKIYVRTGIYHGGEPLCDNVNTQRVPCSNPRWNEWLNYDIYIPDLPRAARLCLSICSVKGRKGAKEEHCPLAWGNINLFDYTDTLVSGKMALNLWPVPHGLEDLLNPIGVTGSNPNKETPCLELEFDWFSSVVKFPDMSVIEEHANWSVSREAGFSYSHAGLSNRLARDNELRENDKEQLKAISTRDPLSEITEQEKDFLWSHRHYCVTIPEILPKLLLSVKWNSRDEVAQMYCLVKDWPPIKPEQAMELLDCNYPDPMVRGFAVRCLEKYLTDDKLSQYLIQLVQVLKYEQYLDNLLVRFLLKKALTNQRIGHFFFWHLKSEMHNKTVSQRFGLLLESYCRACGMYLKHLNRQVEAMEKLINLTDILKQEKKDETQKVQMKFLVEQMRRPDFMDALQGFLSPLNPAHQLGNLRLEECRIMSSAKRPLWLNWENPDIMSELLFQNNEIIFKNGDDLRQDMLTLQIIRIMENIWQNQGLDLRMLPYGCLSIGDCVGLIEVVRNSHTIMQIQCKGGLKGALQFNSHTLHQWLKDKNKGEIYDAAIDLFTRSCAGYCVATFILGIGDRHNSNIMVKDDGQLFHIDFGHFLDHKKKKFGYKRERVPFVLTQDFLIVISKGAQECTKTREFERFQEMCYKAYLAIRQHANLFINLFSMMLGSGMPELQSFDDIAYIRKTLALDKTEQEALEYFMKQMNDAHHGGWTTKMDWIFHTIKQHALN
Sequence of UniProt P08631 (whole entry, looked up): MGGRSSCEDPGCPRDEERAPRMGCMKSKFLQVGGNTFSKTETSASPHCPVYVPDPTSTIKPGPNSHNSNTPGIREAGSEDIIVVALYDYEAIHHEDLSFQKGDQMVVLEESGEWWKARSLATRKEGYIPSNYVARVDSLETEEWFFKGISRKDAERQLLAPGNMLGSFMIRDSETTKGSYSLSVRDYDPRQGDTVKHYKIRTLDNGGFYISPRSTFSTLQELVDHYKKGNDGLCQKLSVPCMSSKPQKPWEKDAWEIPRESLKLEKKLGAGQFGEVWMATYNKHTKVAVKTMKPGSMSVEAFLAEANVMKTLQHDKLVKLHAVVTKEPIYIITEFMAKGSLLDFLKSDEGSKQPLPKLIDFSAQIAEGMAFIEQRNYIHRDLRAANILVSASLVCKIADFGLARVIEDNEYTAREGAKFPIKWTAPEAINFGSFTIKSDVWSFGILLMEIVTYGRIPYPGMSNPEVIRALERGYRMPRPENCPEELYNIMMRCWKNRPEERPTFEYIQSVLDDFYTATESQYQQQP
Sequence of UniProt O00238 (whole entry, looked up): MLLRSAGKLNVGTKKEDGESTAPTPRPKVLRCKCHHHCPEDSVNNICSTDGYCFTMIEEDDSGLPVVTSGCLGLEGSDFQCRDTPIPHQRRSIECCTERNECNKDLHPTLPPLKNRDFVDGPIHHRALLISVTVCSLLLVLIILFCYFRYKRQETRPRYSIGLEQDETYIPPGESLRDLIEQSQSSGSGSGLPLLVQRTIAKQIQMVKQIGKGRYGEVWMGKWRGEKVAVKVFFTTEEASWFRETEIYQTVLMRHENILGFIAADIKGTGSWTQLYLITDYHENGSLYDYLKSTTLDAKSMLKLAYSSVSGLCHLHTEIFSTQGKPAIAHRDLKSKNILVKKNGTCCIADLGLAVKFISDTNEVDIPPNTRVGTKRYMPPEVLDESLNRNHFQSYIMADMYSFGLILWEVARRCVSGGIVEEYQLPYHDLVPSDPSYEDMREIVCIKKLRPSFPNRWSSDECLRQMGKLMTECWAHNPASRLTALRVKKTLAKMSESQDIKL
Sequence of UniProt Q9UK32 (whole entry, looked up): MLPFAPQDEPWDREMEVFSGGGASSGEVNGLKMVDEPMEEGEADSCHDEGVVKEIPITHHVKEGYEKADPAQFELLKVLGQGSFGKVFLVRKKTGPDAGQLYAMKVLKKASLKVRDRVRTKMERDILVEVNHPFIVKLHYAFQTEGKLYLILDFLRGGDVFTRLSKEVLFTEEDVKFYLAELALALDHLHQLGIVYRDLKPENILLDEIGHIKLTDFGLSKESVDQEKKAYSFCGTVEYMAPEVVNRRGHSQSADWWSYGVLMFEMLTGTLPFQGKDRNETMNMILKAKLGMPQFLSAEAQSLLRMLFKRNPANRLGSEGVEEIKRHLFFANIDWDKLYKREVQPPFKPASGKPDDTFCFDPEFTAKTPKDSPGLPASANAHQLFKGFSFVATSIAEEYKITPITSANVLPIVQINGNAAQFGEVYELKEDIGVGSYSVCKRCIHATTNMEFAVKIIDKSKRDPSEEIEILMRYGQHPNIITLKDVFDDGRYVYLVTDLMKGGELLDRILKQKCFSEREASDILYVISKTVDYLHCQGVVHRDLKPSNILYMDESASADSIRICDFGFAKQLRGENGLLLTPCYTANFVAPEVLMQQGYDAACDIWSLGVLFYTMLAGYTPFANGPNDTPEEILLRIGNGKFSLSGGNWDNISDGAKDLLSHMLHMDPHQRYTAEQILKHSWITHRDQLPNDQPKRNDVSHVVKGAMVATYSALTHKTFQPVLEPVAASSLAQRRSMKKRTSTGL
Sequence of UniProt Q92630 (whole entry, looked up): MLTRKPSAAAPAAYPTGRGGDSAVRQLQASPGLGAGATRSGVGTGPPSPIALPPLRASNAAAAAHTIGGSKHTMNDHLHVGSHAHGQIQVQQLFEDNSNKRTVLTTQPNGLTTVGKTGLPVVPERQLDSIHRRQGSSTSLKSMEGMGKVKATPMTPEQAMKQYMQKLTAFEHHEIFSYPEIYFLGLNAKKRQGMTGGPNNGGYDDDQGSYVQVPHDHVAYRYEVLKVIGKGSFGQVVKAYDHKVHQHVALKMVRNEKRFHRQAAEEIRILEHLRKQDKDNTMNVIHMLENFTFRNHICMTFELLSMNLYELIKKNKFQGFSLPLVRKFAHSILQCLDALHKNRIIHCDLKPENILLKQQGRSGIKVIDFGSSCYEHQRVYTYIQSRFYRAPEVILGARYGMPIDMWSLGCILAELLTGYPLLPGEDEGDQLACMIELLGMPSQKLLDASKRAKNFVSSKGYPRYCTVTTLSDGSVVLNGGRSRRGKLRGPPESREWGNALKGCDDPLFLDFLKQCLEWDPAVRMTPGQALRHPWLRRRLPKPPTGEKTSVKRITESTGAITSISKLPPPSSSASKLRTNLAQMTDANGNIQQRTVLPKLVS

Sample 1 — sample: hydrocarbon/water
With `CC(C)C[C@@H]1NC(=O)[C@H](C)N(C)C(=O)[C@H](CC2CCCCC2)NC(=O)[C@H](C)N(C)C(=O)[C@H]2CCCN2C(=O)[C@H](CC(C)C)NC(=O)CN(CC(C)C)C(=O)[C@H](CC(C)C)NC(=O)Cn2cc(nn2)CN(C)C1=O` the logD was 1.4.
With `CC(C)C[C@@H]1NC(=O)[C@H](Cc2ccc(O)cc2)NC(=O)[C@H]2CCCN2C(=O)[C@H](CC2CCCCC2)NC(=O)[C@H](CC2CCCCC2)NC(=O)[C@@H](C)NC1=O` the logD was 0.96.
`CC(C)C[C@@H]1NC(=O)[C@H](C)N(C)C(=O)[C@H](CC2CCCCC2)NC(=O)[C@H](C)N(C)C(=O)[C@H]2CCCN2C(=O)[C@H](CC2CCCCC2)NC(=O)CN(CC(C)C)C(=O)[C@H](CC(C)C)NC(=O)Cn2cc(nn2)CN(C)C1=O` has a logD of 2.26.
`CCC[C@@H]1NC(=O)[C@H](C)N(C)C(=O)[C@H](CC(C)C)NC(=O)Cn2cc(nn2)CN(C)C(=O)[C@H](CC(C)C)NC(=O)[C@H](C)N(C)C(=O)[C@H](CC2CCCCC2)NC(=O)CN(CC)C(=O)[C@H]2CCCN2C1=O` gave a logD of 0.109.
The logD of `CCOC(=O)[C@@H]1CSCC(=O)N[C@H](CC)C(=O)N(CC(C)C)CC(=O)N[C@@H](CC(C)C)C(=O)N2CCC[C@@H]2C(=O)N(C)[C@@H](C)C(=O)N[C@H](CC(C)C)C(=O)N(C)[C@H](C)C(=O)N[C@@H](CC(C)C)C(=O)N1C` is reported as 0.791.
With `CC[C@@H]1C(=O)N(C)[C@@H](CC2CCCCC2)C(=O)N[C@@H](CC2CCCCC2)C(=O)N2CCC[C@@H]2C(=O)N(C)[C@@H](Cc2ccc(O)cc2)C(=O)N[C@@H](CC(C)C)C(=O)N1C` the logD was 3.03.
The logD of `CCOC(=O)[C@@H]1CSCC(=O)N[C@H](CC)C(=O)N(C)[C@@H](C)C(=O)N[C@@H](CC(C)C)C(=O)N2CCC[C@H]2C(=O)N(CC)CC(=O)N[C@H](CC(C)C)C(=O)N(C)[C@@H](C)C(=O)N[C@@H](CC(C)C)C(=O)N1C` is reported as -0.199.
The logD of `CCC[C@@H]1NC(=O)[C@H](C)N(C)C(=O)[C@H](CC(C)C)NC(=O)Cn2cc(nn2)CN(C)C(=O)[C@H](CC(C)C)NC(=O)[C@H](C)N(C)C(=O)[C@H](CC)NC(=O)CN(CC)C(=O)[C@H]2CCCN2C1=O` is reported as -2.45.
The logD of `CCC[C@H]1NC(=O)CSC[C@@H](C(=O)OCC)N(C)C(=O)[C@H](CC(C)C)NC(=O)[C@@H](C)N(C)C(=O)[C@H](CC(C)C)NC(=O)[C@H](C)N(C)C(=O)[C@H]2CCCN2C(=O)[C@@H](CC(C)C)NC(=O)CN(CCC)C1=O` is reported as 0.457.
For `CC(C)CC1NC(=O)CN(CC2CCCCC2)C(=O)C2CCCN2C(=O)C(CC(C)C)NC(=O)C(C)N(C)C(=O)C(CC(C)C)NC(=O)CN(CCCOC(C)C)C(=O)C2CCCN2C(=O)C(C)NC(=O)C(C)N(C)C1=O` (centres unmarked), the logD was 2.92.
`CC[C@H]1C(=O)N[C@@H](CC(C)C)C(=O)N2CCC[C@@H]2C(=O)N(C)[C@@H](Cc2ccc(O)cc2)C(=O)N[C@@H](CC(C)C)C(=O)N(C)[C@H](C)C(=O)N1C` gave a logD of -0.209.

Sample 2 — effect on: binding; concentration: 1 µM
Compound: CN1CCN(C(=O)c2ccc(NC(=O)Nc3ccc(N(C)c4ccnc(Nc5ccc(CS(C)(=O)=O)cc5)n4)cc3)cc2)CC1
For PIK3CA (Homo sapiens, UniProt P42336, H1047L): remaining binding read 96%.
It gave 6.5% for remaining binding (TNK2 (Homo sapiens, UniProt Q07912); competition with immobilised ligand).
RPS6KB1 (Homo sapiens, UniProt P23443) — remaining binding: 37%.
For CDK13 (Homo sapiens, UniProt Q14004): remaining binding read 13%.
IKBKE (Homo sapiens, UniProt Q14164) — remaining binding: 38%.
The remaining binding was 88% (PRPF4B (Homo sapiens, UniProt Q13523)).
EPHB3 (Homo sapiens, UniProt P54753); competition with immobilised ligand — remaining binding: 100%.
For FGFR3 (Homo sapiens, UniProt P22607); competition with immobilised ligand: remaining binding read 100%.
For DYRK2 (Homo sapiens, UniProt Q92630): remaining binding read 75%.

Sample 3 — target: panel of 300 human kinases; concentration: 0.5 µM; reading: higher = more selective
`Clc1ccc(Nc2nnc(Cc3ccncc3)c3ccccc23)cc1` gave a Gini score of 0.73.
For `N#C/C(=C(/N)SC1C=CC=CC1)c1cccc(C(O)c2ccncc2)c1` (centres unmarked), the Gini score was 0.74.
`N#CCCc1ccc2c(c1)-c1[nH]c3ccc([N+](=O)[O-])cc3c1CC(=O)N2` gave a Gini score of 0.61.
`Nc1[nH]nc2nc3ccccc3nc12` gave a Gini score of 0.57.
The Gini score of `CCOC(=O)c1c(C)[nH]c(/C=C2\C(=O)Nc3ccccc32)c1C` is reported as 0.57.
The Gini score of `COc1ccc(OC)c2c(=S)c3ccccc3[nH]c12` is reported as 0.61.
`OCC(O)CCON=C1C(c2c(O)[nH]c3ccccc23)=Nc2ccccc21` (centres unmarked) has a Gini score of 0.48.
For `NC(=O)c1ccc(-c2nc(-c3ccc4c(c3)OCCO4)c(-c3ccccn3)[nH]2)cc1`, the Gini score was 0.68.
`O=C1NC(=O)c2cc(Nc3ccc(F)cc3)c(Nc3ccc(F)cc3)cc21` gave a Gini score of 0.62.
The Gini score of `C[C@@H](N)[C@H]1CC[C@H](C(=O)Nc2ccncc2)CC1` is reported as 0.61.
The Gini score of `CC(C)N(CCC(=O)c1ccc2ccccc2c1)Cc1ccccc1` is reported as 0.65.
`CCN(CC)CCCCN1c2ccccc2Oc2ccc(Cl)cc21` has a Gini score of 0.77.
`Oc1ccc(-c2nc(-c3ccncc3)c(-c3ccc(F)cc3)[nH]2)cc1` gave a Gini score of 0.76.
`CCCCc1c(-c2ccc(O)cc2)[nH]c2nccnc12` gave a Gini score of 0.57.

Sample 4 — concentration: 1 µM
SMILES: Nc1cnc(N2CCc3cc(S(=O)(=O)Nc4c(F)cc(Cl)cc4F)cc(N4CCCC4=O)c32)nc1
For Ribosomal protein S6 kinase alpha-6, C-terminal kinase domain (RPS6KA6, Homo sapiens, UniProt Q9UK32); cell-free assay, competition with immobilised ligand: remaining binding read 100%.
The remaining binding was 85% (MAP3K4 (Homo sapiens, UniProt Q9Y6R4); cell-free assay, competition with immobilised ligand).
It gave 100% for remaining binding (GSK3B (Homo sapiens, UniProt P49841); cell-free assay, competition with immobilised ligand).
It gave 100% for remaining binding (ERN1 (Homo sapiens, UniProt O75460); cell-free assay, competition with immobilised ligand).
The remaining binding was 100% (AAK1 (Homo sapiens, UniProt Q2M2I8); binding).
CSNK2A2 (Homo sapiens, UniProt P19784); cell-free assay, competition with immobilised ligand — remaining binding: 98%.
The remaining binding was 100% (MET (Homo sapiens, UniProt P08581, M1250T); cell-free assay, competition with immobilised ligand).
It gave 75% for remaining binding (MAP3K6 (Homo sapiens, UniProt O95382); cell-free assay, competition with immobilised ligand).
For STK36 (Homo sapiens, UniProt Q9NRP7); cell-free assay, competition with immobilised ligand: remaining binding read 98%.
For SIK2 (Homo sapiens, UniProt Q9H0K1); cell-free assay, competition with immobilised ligand: remaining binding read 100%.
For CDK13 (Homo sapiens, UniProt Q14004); cell-free assay, competition with immobilised ligand: remaining binding read 100%.
For Non-receptor tyrosine-protein kinase TYK2, JH1 (TYK2, Homo sapiens, UniProt P29597); cell-free assay, competition with immobilised ligand: remaining binding read 100%.
For CSNK1A1L (Homo sapiens, UniProt Q8N752); cell-free assay, competition with immobilised ligand: remaining binding read 100%.
It gave 100% for remaining binding (FLT3 (Homo sapiens, UniProt P36888, D835V/ITD); cell-free assay, competition with immobilised ligand).
It gave 88% for remaining binding (PRKD3 (Homo sapiens, UniProt O94806); cell-free assay, competition with immobilised ligand).
It gave 95% for remaining binding (CDC42BPB (Homo sapiens, UniProt Q9Y5S2); cell-free assay, competition with immobilised ligand).
BMPR1B (Homo sapiens, UniProt O00238); cell-free assay, competition with immobilised ligand — remaining binding: 100%.
The remaining binding was 100% (HCK (Homo sapiens, UniProt P08631); cell-free assay, competition with immobilised ligand).
EGFR (Homo sapiens, UniProt P00533, del747-750/T751S); cell-free assay, competition with immobilised ligand — remaining binding: 100%.
For SBK1 (Homo sapiens, UniProt Q52WX2); cell-free assay, competition with immobilised ligand: remaining binding read 83%.
It gave 100% for remaining binding (MKNK2 (Homo sapiens, UniProt Q9HBH9); cell-free assay, competition with immobilised ligand).
The remaining binding was 72% (PIK3CA (Homo sapiens, UniProt P42336, E542K); cell-free assay, competition with immobilised ligand).
For BMPR2 (Homo sapiens, UniProt Q13873); cell-free assay, competition with immobilised ligand: remaining binding read 100%.
The remaining binding was 99% (Tyrosine-protein kinase ABL1, non-phosphorylated (ABL1, Homo sapiens, UniProt P00519, F317L); cell-free assay, competition with immobilised ligand).
For LIM domain kinase 2 (LIMK2, Homo sapiens, UniProt P53671); cell-free assay, competition with immobilised ligand: remaining binding read 100%.

A few entries again (sample 3):
For `N#C/C(=C(/N)SC1C=CC=CC1)c1cccc(C(O)c2ccncc2)c1` (centres unmarked), the Gini score was 0.74.
`N#CCCc1ccc2c(c1)-c1[nH]c3ccc([N+](=O)[O-])cc3c1CC(=O)N2` gave a Gini score of 0.61.
`Nc1[nH]nc2nc3ccccc3nc12` gave a Gini score of 0.57.
The Gini score of `CCOC(=O)c1c(C)[nH]c(/C=C2\C(=O)Nc3ccccc32)c1C` is reported as 0.57.
The Gini score of `COc1ccc(OC)c2c(=S)c3ccccc3[nH]c12` is reported as 0.61.
`OCC(O)CCON=C1C(c2c(O)[nH]c3ccccc23)=Nc2ccccc21` (centres unmarked) has a Gini score of 0.48.
For `NC(=O)c1ccc(-c2nc(-c3ccc4c(c3)OCCO4)c(-c3ccccn3)[nH]2)cc1`, the Gini score was 0.68.
`O=C1NC(=O)c2cc(Nc3ccc(F)cc3)c(Nc3ccc(F)cc3)cc21` gave a Gini score of 0.62.
The Gini score of `C[C@@H](N)[C@H]1CC[C@H](C(=O)Nc2ccncc2)CC1` is reported as 0.61.
The Gini score of `CC(C)N(CCC(=O)c1ccc2ccccc2c1)Cc1ccccc1` is reported as 0.65.
